Results pooled from the literature.
Numbers after ± are the reported error.
Method: steady-state kinetics
B1: PTR1 (Leishmania major, UniProt Q01782); chain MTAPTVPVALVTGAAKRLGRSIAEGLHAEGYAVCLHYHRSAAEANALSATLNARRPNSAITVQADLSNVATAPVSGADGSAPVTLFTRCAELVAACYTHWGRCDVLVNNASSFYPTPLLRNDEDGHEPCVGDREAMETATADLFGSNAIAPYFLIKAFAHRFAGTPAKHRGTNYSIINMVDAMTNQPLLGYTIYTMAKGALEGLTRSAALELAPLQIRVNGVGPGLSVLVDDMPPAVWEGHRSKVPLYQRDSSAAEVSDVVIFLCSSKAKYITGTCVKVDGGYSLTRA
B2: Tcur_2987 W263F (Thermomonospora curvata, UniProt D1A807); chain ACSEERAAGARPSATQTTGTATEPFHGPHQAGIATPPQAHAVFLGLDLRKGTGRKELGRLMRLLTDDARRLTQGRPALADPEPDLAPLPSRLTFTFGFGPGLFKAAGLEKQRPEGLRPLPPFKVDRLEDRWSGGDLLVQICCDDPITLAHALRMTVKDARAFTRVRWVQRGFRRSPGVQSSGATQRNLMGQLDGTVNPVPGTADFDQAVWVQDGPEWLRGGTTLVLRRIRMELEKFDEADPAGKEFAVGRRLTSGAPLTGRHEHDEPDFDAVDSAGFPVIAENAHIRLAHVDSPRLRMLRRPYNYDEGLTADGRSDAGLLFAAYQADIDRQFIPVQRRLDEGGDLLNLWTTPIGSAVFAIPPGCDENGWIGQGLLG
B3: protein (Irpex lacteus, UniProt A0A510I1H7); chain QSQVWGQCGGIGWTGATTCVAGSVCTKSNDYYSQCIPGAAAPSSAPPASTPVSVPPSQPSGSSGGLANIPASKLTQFSNFGTNPNNVQMFVYKPKNVAANPPLIVASHYCSGTAQAYFTGSKFAQLAETYGYVVIFPSSPHSGTCWDVSSDETLMHDGGSDSLSIANAARFAISNWGVDPNRVFAVGTSSGAMMTSVLAGAYPDIFKAGIVDSGVAFGCFAVPGQPEDSWNSQCSEGQLVLTGQQWAQKVKNAFPGFTGTYPKMQVWHGTADTTLYPQNFFEEVKQWTTIFNYPSTPLSNVTQTNLGSNYHNATFGPNFQAILATGVGHTVPLFEQQYLQFLGIA
B4: cyc1 F332A (Streptomyces coelicolor, UniProt Q9K499); chain MHAFPHGTTATPTAIAVPPSLRLPVIEAAFPRQLHPYWPKLQETTRTWLLEKRLMPADKVEEYADGLCYTDLMAGYYLGAPDEVLQAIADYSAWFFVWDDRHDRDIVHGRAGAWRRLRGLLHTALDSPGDHLHHEDTLVAGFADSVRRLYAFLPATWNARFARHFHTVIEAYDREFHNRTRGIVPGVEEYLELRRLTFAHWIWTDLLEPSSGCELPDAVRKHPAYRRAALLSQEFAAWYNDLCSLPKEIAGDEVHNLGISLITHHSLTLEEAIGEVRRRVEECITEFLAVERDALRFADELADGTVRGKELSGAVRANVGNMRNWFSSVYWAHHESGRYMVDSWDDRSTPPYVNNEAAGEK
B5: ASRGL1 (Homo sapiens, UniProt Q7L266); chain 1 MNPIVVVHGGGAGPISKDRKERVHQGMVRAATVGYGILREGGSAVDAVEGAVVALEDDPEFNAGCGSVLNTNGEVEMDASIMDGKDLSAGAVSAVQCIANPIKLARLVMEKTPHCFLTDQGAAQFAAAMGVPEIPGEKLVTERNKKRLEKEKHEKGAQKTDCQKNLG; chain 2 TVGAVALDCKGNVAYATSTGGIVNKMVGRVGDSPCLGAGGYADNDIGAVSTTGHGESILKVNLARLTLFHIEQGKTVEEAADLSLGYMKSRVKGLGGLIVVSKTGDWVAKWTSTSMPWAAAKDGKLHFGIDPDDTTITDLP
B6: estF (Pseudomonas fluorescens, UniProt P22862); chain STFVAKDGTQIYFKDWGSGKPVLFSHGWLLDADMWEYQMEYLSSRGYRTIAFDRRGFGRSDQPWTGNDYDTFADDIAQLIEHLDLKEVTLVGFSMGGGDVARYIARHGSARVAGLVLLGAVTPLFGQKPDYPQGVPLDVFARFKTELLKDRAQFISDFNAPFYGINKGQVVSQGVQTQTLQIALLASLKATVDCVTAFAETDFRPDMAKIDVPTLVIHGDGDQIVPFETTGKVAAELIKGAELKVYKDAPHGFAVTHAQQLNEDLLAFLKR
B7: PPIP5K2 (Homo sapiens, UniProt O43314); chain MSEAPRFFVGPEDTEINPGNYRHFFHHADEDDEEEDDSPPERQIVVGICSMAKKSKSKPMKEILERISLFKYITVVVFEEEVILNEPVENWPLCDCLISFHSKGFPLDKAVAYAKLRNPFVINDLNMQYLIQDRREVYSILQAEGILLPRYAILNRDPNNPKECNLIEGEDHVEVNGEVFQKPFVEKPVSAEDHNVYIYYPTSAGGGSQRLFRKIGSRSSVYSPESNVRKTGSYIYEEFMPTDGTDVKVYTVGPDYAHAEARKSPALDGKVERDSEGKEVRYPVILNAREKLIAWKVCLAFKQTVCGFDLLRANGQSYVCDVNGFSFVKNSMKYYDDCAKILGNIVMRELAPQFHIPWSIPLEAED
UniProt P69848, sequence (whole entry, looked up): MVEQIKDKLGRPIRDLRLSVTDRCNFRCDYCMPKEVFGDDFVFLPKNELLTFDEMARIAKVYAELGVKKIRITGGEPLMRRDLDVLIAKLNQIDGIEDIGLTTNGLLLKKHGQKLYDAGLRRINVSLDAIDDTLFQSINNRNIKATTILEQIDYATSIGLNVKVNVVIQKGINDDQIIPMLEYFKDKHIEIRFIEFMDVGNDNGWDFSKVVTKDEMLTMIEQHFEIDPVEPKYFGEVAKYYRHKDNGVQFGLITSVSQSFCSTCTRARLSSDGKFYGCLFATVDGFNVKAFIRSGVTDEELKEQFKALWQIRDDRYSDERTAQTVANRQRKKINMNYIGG
UniProt Q6PHW0, sequence (whole entry, looked up): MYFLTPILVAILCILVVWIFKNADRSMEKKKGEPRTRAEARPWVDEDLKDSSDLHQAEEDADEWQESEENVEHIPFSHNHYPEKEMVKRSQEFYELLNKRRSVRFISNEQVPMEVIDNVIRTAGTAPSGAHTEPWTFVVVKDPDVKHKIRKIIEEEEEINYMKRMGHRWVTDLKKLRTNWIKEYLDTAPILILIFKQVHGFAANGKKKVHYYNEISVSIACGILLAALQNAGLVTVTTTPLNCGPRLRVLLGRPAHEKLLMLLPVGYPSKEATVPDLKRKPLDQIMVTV
UniProt P22303, sequence (whole entry, looked up): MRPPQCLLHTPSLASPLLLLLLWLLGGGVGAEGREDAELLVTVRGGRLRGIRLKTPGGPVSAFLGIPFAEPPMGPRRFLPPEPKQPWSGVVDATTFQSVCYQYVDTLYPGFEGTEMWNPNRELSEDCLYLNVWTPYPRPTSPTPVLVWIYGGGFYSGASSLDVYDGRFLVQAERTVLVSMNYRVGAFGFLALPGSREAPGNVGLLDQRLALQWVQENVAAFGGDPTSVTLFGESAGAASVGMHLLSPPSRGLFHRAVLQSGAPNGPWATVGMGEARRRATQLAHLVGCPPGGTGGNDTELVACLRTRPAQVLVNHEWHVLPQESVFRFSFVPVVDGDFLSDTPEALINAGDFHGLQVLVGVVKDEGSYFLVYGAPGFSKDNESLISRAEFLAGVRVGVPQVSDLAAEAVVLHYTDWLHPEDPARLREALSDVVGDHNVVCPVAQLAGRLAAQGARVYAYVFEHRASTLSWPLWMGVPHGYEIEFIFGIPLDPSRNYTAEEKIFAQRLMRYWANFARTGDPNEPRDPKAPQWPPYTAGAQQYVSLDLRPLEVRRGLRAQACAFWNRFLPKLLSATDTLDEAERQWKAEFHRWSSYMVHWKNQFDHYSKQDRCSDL
UniProt Q04049, sequence (whole entry, looked up): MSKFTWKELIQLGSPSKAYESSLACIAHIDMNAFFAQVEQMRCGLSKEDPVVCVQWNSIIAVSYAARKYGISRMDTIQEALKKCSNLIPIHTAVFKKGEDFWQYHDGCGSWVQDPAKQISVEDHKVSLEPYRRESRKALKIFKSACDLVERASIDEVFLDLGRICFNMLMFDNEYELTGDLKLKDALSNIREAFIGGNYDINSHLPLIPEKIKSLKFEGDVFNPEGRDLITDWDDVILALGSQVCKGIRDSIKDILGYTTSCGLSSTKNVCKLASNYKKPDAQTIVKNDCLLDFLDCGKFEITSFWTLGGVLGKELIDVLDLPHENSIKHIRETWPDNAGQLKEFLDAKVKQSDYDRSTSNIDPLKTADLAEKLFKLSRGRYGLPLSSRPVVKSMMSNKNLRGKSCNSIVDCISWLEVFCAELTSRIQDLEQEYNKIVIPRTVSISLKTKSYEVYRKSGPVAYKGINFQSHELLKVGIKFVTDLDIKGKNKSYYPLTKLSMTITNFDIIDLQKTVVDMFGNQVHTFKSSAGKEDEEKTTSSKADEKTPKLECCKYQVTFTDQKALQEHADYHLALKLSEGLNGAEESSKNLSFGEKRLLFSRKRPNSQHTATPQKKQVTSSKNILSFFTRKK
UniProt P0AB87, sequence (whole entry, looked up): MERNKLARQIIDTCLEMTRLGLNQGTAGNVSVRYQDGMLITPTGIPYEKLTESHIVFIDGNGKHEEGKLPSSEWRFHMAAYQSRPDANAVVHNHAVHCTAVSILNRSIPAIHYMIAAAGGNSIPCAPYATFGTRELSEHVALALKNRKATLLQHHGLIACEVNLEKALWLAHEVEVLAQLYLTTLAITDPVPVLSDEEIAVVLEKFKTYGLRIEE
UniProt O60656, sequence (whole entry, looked up): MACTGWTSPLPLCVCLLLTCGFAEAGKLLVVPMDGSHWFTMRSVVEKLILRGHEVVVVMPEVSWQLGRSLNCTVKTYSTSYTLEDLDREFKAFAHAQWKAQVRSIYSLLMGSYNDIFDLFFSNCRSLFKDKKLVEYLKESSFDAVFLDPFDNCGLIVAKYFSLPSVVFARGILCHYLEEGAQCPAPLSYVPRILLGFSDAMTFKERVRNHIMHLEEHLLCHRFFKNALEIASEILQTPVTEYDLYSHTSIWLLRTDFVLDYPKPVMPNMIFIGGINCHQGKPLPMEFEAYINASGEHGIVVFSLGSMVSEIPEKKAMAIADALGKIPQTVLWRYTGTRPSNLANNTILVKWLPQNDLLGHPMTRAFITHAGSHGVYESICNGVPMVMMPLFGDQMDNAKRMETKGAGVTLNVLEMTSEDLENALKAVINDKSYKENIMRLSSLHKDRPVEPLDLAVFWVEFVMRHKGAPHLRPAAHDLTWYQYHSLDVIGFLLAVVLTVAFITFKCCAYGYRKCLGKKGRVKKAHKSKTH
UniProt Q18B70, sequence (whole entry, looked up): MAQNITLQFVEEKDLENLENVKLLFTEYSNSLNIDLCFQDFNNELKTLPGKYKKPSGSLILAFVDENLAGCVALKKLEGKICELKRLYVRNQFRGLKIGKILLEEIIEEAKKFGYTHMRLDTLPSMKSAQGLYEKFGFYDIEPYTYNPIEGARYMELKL
UniProt P07914, sequence (whole entry, looked up): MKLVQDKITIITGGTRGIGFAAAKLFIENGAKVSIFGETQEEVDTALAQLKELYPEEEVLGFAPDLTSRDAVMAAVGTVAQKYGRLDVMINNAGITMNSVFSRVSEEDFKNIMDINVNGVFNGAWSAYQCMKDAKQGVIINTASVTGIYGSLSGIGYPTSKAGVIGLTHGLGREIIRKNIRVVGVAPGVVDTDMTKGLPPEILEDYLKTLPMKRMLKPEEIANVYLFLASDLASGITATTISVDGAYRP

The kcat/Km of `B1 (PTR1)` is reported as 170000 M⁻¹ s⁻¹ (C[C@H](O)[C@H](O)C1=Nc2c(nc(N)[nH]c2=O)NC1; pH 7.4, 25 °C, apparent).
`BaiA1 (Clostridium scindens, UniProt P07914)` gave a kcat/Km of 33300 M⁻¹ s⁻¹ (C[C@H](CCC(=O)SCCNC(=O)CCNC(=O)[C@H](O)C(C)(C)COP(=O)(O)OP(=O)(O)OC[C@H]1O[C@@H](n2cnc3c(N)ncnc32)[C@H](O)[C@@H]1OP(=O)(O)O)[C@H]1CC[C@H]2[C@@H]3CC[C@@H]4C[C@H](O)CC[C@]4(C)[C@H]3CC[C@]12C; pH 8.7, 37 °C, added: NAD+).
The kcat/Km of `RAD30 (Saccharomyces cerevisiae, UniProt Q04049)` is reported as 80 M⁻¹ s⁻¹ (Cc1cn([C@H]2C[C@H](O)[C@@H](COP(=O)(O)OP(=O)(O)OP(=O)(O)O)O2)c(=O)[nH]c1=O; pH 7.5, room temperature, apparent Km, apparent, added: dG 10 nM primer-template).
For `B2 (Tcur_2987 W263F)`, the kcat/Km was 1.5e+06 M⁻¹ s⁻¹ (Nc1c(S(=O)(=O)O)cc(Nc2cccc(S(=O)(=O)CCOS(=O)(=O)O)c2)c2c1C(=O)c1ccccc1C2=O; pH 3, sigmoidal kinetics, added: H2O2 1 mM).
For `Ptb (Listeria monocytogenes, UniProt Q8Y7B7)`, the kcat/Km was 1.7e+06 M⁻¹ s⁻¹ (CCCCCC(=O)SCCNC(=O)CCNC(=O)[C@H](O)C(C)(C)COP(=O)(O)OP(=O)(O)OC[C@H]1O[C@@H](n2cnc3c(N)ncnc32)[C@H](O)[C@@H]1OP(=O)(O)O; pH 7.5, 25 °C, apparent, poor fit).
`UGT1A9 (Homo sapiens, UniProt O60656)` gave a Km of 316 µM (CC/C(=C(\c1ccc(O)cc1)c1ccc(OCCNC)cc1)c1ccccc1; pH 7.4, 37 °C).
With `B3 (protein)` the kcat/Km was 85500 M⁻¹ s⁻¹ (CC(=O)Oc1ccc2c(C)cc(=O)oc2c1; pH 6, 30 °C).
`IYD (Homo sapiens, UniProt Q6PHW0)` gave a kcat/Km of 700 ± 200 M⁻¹ s⁻¹ (N#Cc1cc(C[C@H](N)C(=O)O)cc(I)c1O; pH 7.4, 25 °C, added: sodium dithionite 0.5%).
`protein (Clostridioides difficile, UniProt Q18B70)` has a kcat/Km of 30900 M⁻¹ s⁻¹ (CC(=O)SCCNC(=O)CCNC(=O)[C@H](O)C(C)(C)COP(=O)(O)OP(=O)(O)OC[C@H]1O[C@@H](n2cnc3c(N)ncnc32)[C@H](O)[C@@H]1OP(=O)(O)O; pH 8, 37 °C, added: L-Thr 10 mM, AcCoA 0-2 mM).
`moaA (Staphylococcus aureus, UniProt P69848)` gave a kcat/Km of 533 ± 200 M⁻¹ s⁻¹ (Nc1nc2c(ncn2[C@@H]2O[C@H](COP(=O)(O)OP(=O)(O)OP(=O)(O)O)[C@@H](O)[C@H]2O)c(=O)[nH]1; pH 7.6, 25 °C, added: SAM, dithionite, MgCl2 1 mM).
With `B4 (cyc1 F332A)` the kcat/Km was 290 ± 80 M⁻¹ s⁻¹ (CC(C)=CCC/C(C)=C/CC/C(C)=C/CO[P@@](=O)(O)OP(=O)(O)O; pH 6.5, 30 °C, added: MgCl2 10 mM).
For `B5 (ASRGL1)`, the kcat/Km was 2000 ± 300 M⁻¹ s⁻¹ (COC(=O)[C@H](Cc1ccccc1)NC(=O)C[C@H](N)C(=O)O; pH 7.4, 37 °C, NaCl 100 mM).
For `B6 (estF)`, the kcat/Km was 800 M⁻¹ s⁻¹ (CCOC(C)=O; pH 6.5, 23 °C, apparent).
With `ACHE (Homo sapiens, UniProt P22303)` the kcat/Km was 6.48e+07 ± 6.47e+06 M⁻¹ s⁻¹ (CC(=O)SCC[N+](C)(C)C; pH 8, 22 °C).
For `B7 (PPIP5K2)`, the kcat/Km was 5900 M⁻¹ s⁻¹ (Nc1ncnc2c1ncn2[C@@H]1O[C@H](COP(=O)(O)OP(=O)(O)OP(=O)(O)O)[C@@H](O)[C@H]1O).
For `putA (Bradyrhizobium diazoefficiens, UniProt Q89E26)`, the kcat/Km was 8100 ± 822 M⁻¹ s⁻¹ (O=C(O)[C@@H]1CCC=N1; pH 7.5, 23 °C).
With `fucA (Escherichia coli, UniProt P0AB87)` the kcat/Km was 3900 M⁻¹ s⁻¹ (C[C@@H](O)[C@@H](O)C(=O)COP(=O)(O)O; pH 7.8, 30 °C).
The kcat/Km of `AphC (Rhodococcus jostii, UniProt Q0S9X1)` is reported as 47000 M⁻¹ s⁻¹ (Oc1ccc(-c2ccccc2)cc1O; pH 8, 25 °C, apparent, added: O2).

Repeated from above:
`moaA (Staphylococcus aureus, UniProt P69848)` gave a kcat/Km of 533 ± 200 M⁻¹ s⁻¹ (Nc1nc2c(ncn2[C@@H]2O[C@H](COP(=O)(O)OP(=O)(O)OP(=O)(O)O)[C@@H](O)[C@H]2O)c(=O)[nH]1; pH 7.6, 25 °C, added: SAM, dithionite, MgCl2 1 mM).
With `B4 (cyc1 F332A)` the kcat/Km was 290 ± 80 M⁻¹ s⁻¹ (CC(C)=CCC/C(C)=C/CC/C(C)=C/CO[P@@](=O)(O)OP(=O)(O)O; pH 6.5, 30 °C, added: MgCl2 10 mM).
For `B5 (ASRGL1)`, the kcat/Km was 2000 ± 300 M⁻¹ s⁻¹ (COC(=O)[C@H](Cc1ccccc1)NC(=O)C[C@H](N)C(=O)O; pH 7.4, 37 °C, NaCl 100 mM).
